Experimental data gathered from unrelated publications.
Protocols differ between the studies behind these lines. ± gives the spread as reported.
Tumor necrosis factor receptor superfamily member 9/Nectin-4: Tumor necrosis factor receptor superfamily member 9/Nectin-4 (Homo sapiens, UniProt Q07011+Q96NY8)
H2-D1 17: H-2 class I histocompatibility antigen, D-B alpha chain, 17 (H2-D1, Mus musculus, UniProt P01899)
sdiA: Regulatory protein SdiA (sdiA, Escherichia coli, UniProt P07026)

CCCC[C@@H]1NC(=O)[C@H](Cc2ccc(O)cc2)NC(=O)[C@@H]2CCCN2C(=O)[C@H](CC(=O)O)NC(=O)[C@H](C)NC(=O)[C@H](Cc2ccccc2)NC(=O)[C@@H]2CSCCC(=O)N3CN(CN(C3)C(=O)CCSC[C@H](NC(C)=O)C(=O)N[C@@H](CC(C)(C)C)C(=O)N[C@@H](CCC(=O)O)C(=O)N[C@@H](CCC(=O)O)C(=O)N[C@H](CCCCNC(=O)CCc3cn(CCOCCOCCOCCN(CCOCCOCCOCCC(=O)N[C@H]4CSCCC(=O)N5CN6CN(C5)C(=O)CCSC[C@H](NC(=O)[C@@H](CC(=O)O)NC(=O)[C@H](Cc5cccc7ccccc57)NC(=O)[C@@H]5CCCN5C4=O)C(=O)N[C@@H](CCSC)C(=O)N[C@@H](CCCCNC(=N)N)C(=O)N[C@@H](CC(=O)O)C(=O)N[C@@H](Cc4c[nH]c5ccccc45)C(=O)N[C@@H](CO)C(=O)N[C@@H]([C@@H](C)O)C(=O)N4CCC[C@H]4C(=O)N4C[C@H](O)C[C@H]4C(=O)N[C@@H](Cc4c[nH]c5ccccc45)C(=O)N[C@H](C(N)=O)CSCCC6=O)CCOCCOCCOCCn4cc(CCC(=O)NCCCC[C@H]5NC(=O)[C@H](CCC(=O)O)NC(=O)[C@H](CCC(=O)O)NC(=O)[C@H](CC(C)(C)C)NC(=O)[C@@H](NC(C)=O)CSCCC(=O)N6CN7CN(C6)C(=O)CCSC[C@H](NC(=O)[C@H](Cc6ccc(O)cc6)NC(=O)[C@@H]6CCCN6C5=O)C(=O)N[C@@H](Cc5ccccc5)C(=O)N[C@@H](C)C(=O)N[C@@H](CC(=O)O)C(=O)N5CCC[C@H]5C(=O)N[C@@H](Cc5ccc(O)cc5)C(=O)N[C@@H](CCCC)C(=O)N[C@H](C(N)=O)CSCCC7=O)nn4)nn3)C(=O)N3CCC[C@H]3C(=O)N[C@@H](Cc3ccc(O)cc3)C(=O)N2)C(=O)CCSC[C@@H](C(N)=O)NC1=O  EC50 (Tumor necrosis factor receptor superfamily member 9/Nectin-4; reporter gene, agonist; HT-1376 coculture with reporter cells): 0.34 nM
C[C@H]1CN(c2n[nH]c3nc(N[C@H]4CC[C@H](NS(=O)(=O)CCC(F)(F)F)CC4)ncc23)CCO1  IC50 (Protein kinase C delta type (PRKCD, Homo sapiens, UniProt Q05655); biochemical): ≥ 20000 nM
CCCC[C@@H]1NC(=O)[C@H](Cc2ccc(O)cc2)NC(=O)[C@@H]2CCCN2C(=O)[C@H](CC(N)=O)NC(=O)[C@H](C)NC(=O)[C@H](Cc2ccccc2)NC(=O)[C@@H]2CSCCC(=O)N3CN(CN(C3)C(=O)CCSC[C@H](NC(C)=O)C(=O)N[C@@H](CC(C)(C)C)C(=O)N3CCC[C@H]3C(=O)N[C@@H](CCC(=O)O)C(=O)N[C@H](CCCCNC(=O)CCc3cn(CCOCCOCCOCCN(CCOCCOCCOCCC(=O)N[C@H]4CSCCC(=O)N5CN6CN(C5)C(=O)CCSC[C@H](NC(=O)[C@@H](CC(=O)O)NC(=O)[C@H](Cc5cccc7ccccc57)NC(=O)[C@@H]5CCCN5C4=O)C(=O)N[C@@H](CCSC)C(=O)N[C@@H](CCCCNC(=N)N)C(=O)N[C@@H](CC(=O)O)C(=O)N[C@@H](Cc4c[nH]c5ccccc45)C(=O)N[C@@H](CO)C(=O)N[C@@H]([C@@H](C)O)C(=O)N4CCC[C@H]4C(=O)N4C[C@H](O)C[C@H]4C(=O)N[C@@H](Cc4c[nH]c5ccccc45)C(=O)N[C@H](C(N)=O)CSCCC6=O)CCOCCOCCOCCn4cc(CCC(=O)NCCCC[C@H]5NC(=O)[C@H](CCC(=O)O)NC(=O)[C@@H]6CCCN6C(=O)[C@H](CC(C)(C)C)NC(=O)[C@@H](NC(C)=O)CSCCC(=O)N6CN7CN(C6)C(=O)CCSC[C@H](NC(=O)[C@H](Cc6ccc(O)cc6)NC(=O)[C@@H]6CCCN6C5=O)C(=O)N[C@@H](Cc5ccccc5)C(=O)N[C@@H](C)C(=O)N[C@@H](CC(N)=O)C(=O)N5CCC[C@H]5C(=O)N[C@@H](Cc5ccc(O)cc5)C(=O)N[C@@H](CCCC)C(=O)N[C@H](C(N)=O)CSCCC7=O)nn4)nn3)C(=O)N3CCC[C@H]3C(=O)N[C@@H](Cc3ccc(O)cc3)C(=O)N2)C(=O)CCSC[C@@H](C(N)=O)NC1=O  EC50 (Tumor necrosis factor receptor superfamily member 9/Nectin-4; reporter gene, agonist; HT-1376 coculture with reporter cells): 14.1 nM
CC[C@H](C)[C@H](NC(=O)[C@H](C)NC(=O)[C@@H](NC(=O)[C@@H](NC(=O)CNC(=O)[C@H](CC(N)=O)NC(=O)[C@H](Cc1c[nH]c2ccccc12)NC(=O)[C@@H](NC(=O)[C@H](CO)NC(=O)[C@@H](N)CO)C(C)C)[C@@H](C)O)[C@@H](C)O)C(=O)O  EC50 (H2-D1 17; H-2D stabilisation, flow cytometry; RMA-S TAP-deficient; overnight): 2000 nM
CC(CCc1ccc(O)cc1)NCCc1ccc(O)c(O)c1 (centres unmarked)  EC50 (ADRB1 (Meleagris gallopavo, UniProt P07700, A282L/C116L/F327A/F338M/M90V/R68S/Y227A); CRE-SPAP reporter gene (cAMP), agonist; CHO cells expressing ADRB1 β6-m23): 575 nM
CC[C@@H]1CN2CCc3c([nH]c4cccc(OC)c34)[C@@H]2C[C@@H]1/C(=C\OC)C(=O)O  EC50 (Mu-type opioid receptor (OPRM1, Homo sapiens, UniProt P35372); G protein activation, agonist, BRET; human cells): > 100000 nM
CCCCCCCCCCCCCCCC(=O)N[C@H]1CCOC1=O  EC50 (sdiA): 800 nM
COc1ccc(C[C@@H](C)NC[C@H](O)c2ccc(O)c3[nH]c(=O)ccc23)cc1  EC50 (ADRB1 (Meleagris gallopavo, UniProt P07700, C116L); CRE-SPAP reporter gene, agonist; CHO cells): 0.603 nM
CCCCCCCCCCCCCCCC(=O)OCC(CSCC(N)C(=O)NC(CO)C(=O)NCCCN(C)C)OC(=O)CCCCCCCCCCCCCCC (centres unmarked)  EC50 (Toll-like receptor 2 (TLR2, Homo sapiens, UniProt O60603); reporter gene, agonist; HEK-Blue hTLR2 cells): 0.46 ± 0.04 nM
CCCC[C@@H]1NC(=O)[C@H](Cc2ccc(O)cc2)NC(=O)[C@@H]2CCCN2C(=O)[C@H](CC(=O)O)NC(=O)[C@H](C)NC(=O)[C@H](Cc2ccccc2)NC(=O)[C@@H]2CSCCC(=O)N3CN(CN(C3)C(=O)CCSC[C@@H](C(N)=O)NC1=O)C(=O)CCSCCC(=O)N[C@@H](CC(C)(C)C)C(=O)N1CCC[C@H]1C(=O)N[C@@H](CCC(=O)O)C(=O)N[C@H](CCCCNC(=O)CCc1cn(CCOCCOCCOCCOCCOCCC(=O)N[C@H]3CSCCC(=O)N4CN5CN(C4)C(=O)CCSC[C@H](NC(=O)[C@@H](CC(=O)O)NC(=O)[C@H](Cc4cccc6ccccc46)NC(=O)[C@@H]4CCCN4C3=O)C(=O)N[C@@H](CCSC)C(=O)N[C@@H](CCCCNC(=N)N)C(=O)N[C@@H](CC(=O)O)C(=O)N[C@@H](Cc3c[nH]c4ccccc34)C(=O)N[C@@H](CO)C(=O)N[C@@H]([C@@H](C)O)C(=O)N3CCC[C@H]3C(=O)N3C[C@H](O)C[C@H]3C(=O)N[C@@H](Cc3c[nH]c4ccccc34)C(=O)N[C@H](C(N)=O)CSCCC5=O)nn1)C(=O)N1CCC[C@H]1C(=O)N[C@@H](Cc1ccc(O)cc1)C(=O)N2  EC50 (Tumor necrosis factor receptor superfamily member 9/Nectin-4; reporter gene, agonist; HT-1376 coculture with reporter cells): 2.45 nM
COc1cc(Nc2ncc(F)c(Nc3ccc4c(n3)NC(=O)C(C)(C)O4)n2)cc(OC)c1OC  IC50 (Protein tyrosine phosphatase type IVA 3 (PTP4A3, Homo sapiens, UniProt O75365); PRL-3): > 10000 nM
CCOc1ccccc1CNCc1cccn1-c1nnc(N2CCN(c3ccccc3)CC2)s1  maximum response (Vero-E6; CellTiter-Glo ATP; 72 h, first round 5-point; reference: DMSO 0%, hyamine -100%, more negative, more toxic): -23%
CCCCOCCOP(=O)(OCCOCCCC)OCCOCCCC  EC50 (Estrogen receptor (ESR1, Homo sapiens, UniProt P03372); human cells): > 100000 nM
O=C(Cc1cccc([N+](=O)[O-])c1)NC1CCCC1  EC50 (sdiA): 2.07 nM
C=C(C)[C@@H]1CCC(C)=C[C@H]1c1c(O)cc(CCCCC)cc1O  EC50 (Transient receptor potential cation channel subfamily V member 2 (Trpv2, Rattus norvegicus, UniProt Q9WUD2); calcium influx, agonist, Fura-2 fluorescence; Pichia pastoris membrane vesicles): ~100000 nM
CCCC[C@@H]1NC(=O)[C@H](Cc2ccc(O)cc2)NC(=O)[C@@H]2CCCN2C(=O)[C@H](CC(=O)O)NC(=O)[C@H](C)NC(=O)[C@H](Cc2ccccc2)NC(=O)[C@@H]2CSCCC(=O)N3CN(CN(C3)C(=O)CCSC[C@@H](C(=O)N[C@@H](C)C(N)=O)NC1=O)C(=O)CCSC[C@H](NC(C)=O)C(=O)N[C@@H](CC(C)(C)C)C(=O)N1CCC[C@H]1C(=O)N[C@@H](CCC(=O)O)C(=O)N[C@H](CCCCNC(=O)CCc1cn(CCOCCOCCOCCOCCOCCC(=O)NCCCC[C@H]3NC(=O)[C@H](Cc4cccc5ccccc45)NC(=O)[C@@H]4CCCN4C(=O)[C@@H](NC(C)=O)CSCCC(=O)N4CN5CN(C4)C(=O)CCSC[C@H](NC3=O)C(=O)N[C@@H](CCSC)C(=O)N[C@@H](CCCCNC(=N)N)C(=O)N[C@@H](CC(=O)O)C(=O)N[C@@H](Cc3c[nH]c4ccccc34)C(=O)N[C@@H](CO)C(=O)N[C@@H]([C@@H](C)O)C(=O)N3CCC[C@H]3C(=O)N3C[C@H](O)C[C@H]3C(=O)N[C@@H](Cc3c[nH]c4ccccc34)C(=O)N[C@H](C(N)=O)CSCCC5=O)nn1)C(=O)N1CCC[C@H]1C(=O)N[C@@H](Cc1ccc(O)cc1)C(=O)N2  EC50 (Tumor necrosis factor receptor superfamily member 9/Nectin-4; reporter gene, agonist; HT-1376 coculture with reporter cells): 1.61 nM
CC[C@H](C)[C@H](NC(=O)[C@H](C)NC(=O)[C@@H](NC(=O)[C@@H](NC(=O)[C@H](C)NC(=O)[C@H](CC(N)=O)NC(=O)[C@H](C)NC(=O)[C@@H](NC(=O)[C@H](CO)NC(=O)[C@@H](N)CO)C(C)C)[C@@H](C)O)[C@@H](C)O)C(=O)O  EC50 (H2-D1 17; H-2D stabilisation, flow cytometry; RMA-S TAP-deficient; overnight): 2000 nM

A few entries again:
O=C(Cc1cccc([N+](=O)[O-])c1)NC1CCCC1  EC50 (sdiA): 2.07 nM
CCCCOCCOP(=O)(OCCOCCCC)OCCOCCCC  EC50 (Estrogen receptor (ESR1, Homo sapiens, UniProt P03372); human cells): > 100000 nM
